{"data": "Published values from different studies", "note": "Numbered parts are unrelated; each lists some results of a single study. “And” joins repeats or separate records; there may be more than shown. Substitutions count along the parent as printed.", "chain of UniProt Q9UEE5 (whole entry, looked up)": "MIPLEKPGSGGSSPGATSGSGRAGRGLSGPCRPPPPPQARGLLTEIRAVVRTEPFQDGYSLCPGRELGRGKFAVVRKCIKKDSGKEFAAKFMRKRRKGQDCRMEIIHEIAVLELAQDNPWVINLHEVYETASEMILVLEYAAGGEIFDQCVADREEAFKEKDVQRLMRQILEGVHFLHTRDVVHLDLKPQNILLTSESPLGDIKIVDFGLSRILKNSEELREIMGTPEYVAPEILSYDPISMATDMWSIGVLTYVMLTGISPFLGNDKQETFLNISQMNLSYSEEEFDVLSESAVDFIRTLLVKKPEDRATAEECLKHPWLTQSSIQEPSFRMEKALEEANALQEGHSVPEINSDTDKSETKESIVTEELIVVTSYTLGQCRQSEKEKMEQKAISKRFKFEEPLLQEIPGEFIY", "chain of UniProt O14936 (whole entry, looked up)": "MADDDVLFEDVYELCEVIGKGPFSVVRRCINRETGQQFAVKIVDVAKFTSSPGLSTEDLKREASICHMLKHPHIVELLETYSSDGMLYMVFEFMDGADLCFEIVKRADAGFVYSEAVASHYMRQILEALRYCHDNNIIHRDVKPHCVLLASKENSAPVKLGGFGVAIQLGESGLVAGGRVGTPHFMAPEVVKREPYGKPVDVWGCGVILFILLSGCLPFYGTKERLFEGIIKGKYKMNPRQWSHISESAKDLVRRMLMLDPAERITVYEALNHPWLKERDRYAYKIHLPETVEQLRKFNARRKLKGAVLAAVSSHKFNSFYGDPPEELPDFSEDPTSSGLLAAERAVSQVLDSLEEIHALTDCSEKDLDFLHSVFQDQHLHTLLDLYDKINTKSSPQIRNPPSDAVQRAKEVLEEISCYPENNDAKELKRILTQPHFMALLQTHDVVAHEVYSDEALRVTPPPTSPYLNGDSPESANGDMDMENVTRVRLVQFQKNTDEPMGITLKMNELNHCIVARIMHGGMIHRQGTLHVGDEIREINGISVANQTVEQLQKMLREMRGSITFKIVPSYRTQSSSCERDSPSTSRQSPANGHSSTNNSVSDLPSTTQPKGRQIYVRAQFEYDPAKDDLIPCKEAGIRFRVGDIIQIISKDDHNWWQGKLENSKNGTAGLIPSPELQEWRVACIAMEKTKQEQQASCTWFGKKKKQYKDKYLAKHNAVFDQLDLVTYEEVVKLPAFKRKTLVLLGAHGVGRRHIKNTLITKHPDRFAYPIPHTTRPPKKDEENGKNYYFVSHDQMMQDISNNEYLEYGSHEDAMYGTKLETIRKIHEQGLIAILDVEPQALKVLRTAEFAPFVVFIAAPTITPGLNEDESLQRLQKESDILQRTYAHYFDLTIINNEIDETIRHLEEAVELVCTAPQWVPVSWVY", "chain of UniProt O14733 (whole entry, looked up)": "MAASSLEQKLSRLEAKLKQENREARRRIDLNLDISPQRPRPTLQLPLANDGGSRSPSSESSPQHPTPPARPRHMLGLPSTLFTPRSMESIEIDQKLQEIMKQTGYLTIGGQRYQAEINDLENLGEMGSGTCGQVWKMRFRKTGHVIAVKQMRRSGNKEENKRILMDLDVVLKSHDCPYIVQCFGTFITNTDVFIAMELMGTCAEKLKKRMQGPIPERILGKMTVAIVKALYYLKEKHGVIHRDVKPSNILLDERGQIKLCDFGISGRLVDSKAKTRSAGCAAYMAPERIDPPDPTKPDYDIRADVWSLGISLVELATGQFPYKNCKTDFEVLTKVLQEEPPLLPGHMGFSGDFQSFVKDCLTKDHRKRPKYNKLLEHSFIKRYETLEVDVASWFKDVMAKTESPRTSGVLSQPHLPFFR", "chain of UniProt Q8NEV4 (whole entry, looked up)": "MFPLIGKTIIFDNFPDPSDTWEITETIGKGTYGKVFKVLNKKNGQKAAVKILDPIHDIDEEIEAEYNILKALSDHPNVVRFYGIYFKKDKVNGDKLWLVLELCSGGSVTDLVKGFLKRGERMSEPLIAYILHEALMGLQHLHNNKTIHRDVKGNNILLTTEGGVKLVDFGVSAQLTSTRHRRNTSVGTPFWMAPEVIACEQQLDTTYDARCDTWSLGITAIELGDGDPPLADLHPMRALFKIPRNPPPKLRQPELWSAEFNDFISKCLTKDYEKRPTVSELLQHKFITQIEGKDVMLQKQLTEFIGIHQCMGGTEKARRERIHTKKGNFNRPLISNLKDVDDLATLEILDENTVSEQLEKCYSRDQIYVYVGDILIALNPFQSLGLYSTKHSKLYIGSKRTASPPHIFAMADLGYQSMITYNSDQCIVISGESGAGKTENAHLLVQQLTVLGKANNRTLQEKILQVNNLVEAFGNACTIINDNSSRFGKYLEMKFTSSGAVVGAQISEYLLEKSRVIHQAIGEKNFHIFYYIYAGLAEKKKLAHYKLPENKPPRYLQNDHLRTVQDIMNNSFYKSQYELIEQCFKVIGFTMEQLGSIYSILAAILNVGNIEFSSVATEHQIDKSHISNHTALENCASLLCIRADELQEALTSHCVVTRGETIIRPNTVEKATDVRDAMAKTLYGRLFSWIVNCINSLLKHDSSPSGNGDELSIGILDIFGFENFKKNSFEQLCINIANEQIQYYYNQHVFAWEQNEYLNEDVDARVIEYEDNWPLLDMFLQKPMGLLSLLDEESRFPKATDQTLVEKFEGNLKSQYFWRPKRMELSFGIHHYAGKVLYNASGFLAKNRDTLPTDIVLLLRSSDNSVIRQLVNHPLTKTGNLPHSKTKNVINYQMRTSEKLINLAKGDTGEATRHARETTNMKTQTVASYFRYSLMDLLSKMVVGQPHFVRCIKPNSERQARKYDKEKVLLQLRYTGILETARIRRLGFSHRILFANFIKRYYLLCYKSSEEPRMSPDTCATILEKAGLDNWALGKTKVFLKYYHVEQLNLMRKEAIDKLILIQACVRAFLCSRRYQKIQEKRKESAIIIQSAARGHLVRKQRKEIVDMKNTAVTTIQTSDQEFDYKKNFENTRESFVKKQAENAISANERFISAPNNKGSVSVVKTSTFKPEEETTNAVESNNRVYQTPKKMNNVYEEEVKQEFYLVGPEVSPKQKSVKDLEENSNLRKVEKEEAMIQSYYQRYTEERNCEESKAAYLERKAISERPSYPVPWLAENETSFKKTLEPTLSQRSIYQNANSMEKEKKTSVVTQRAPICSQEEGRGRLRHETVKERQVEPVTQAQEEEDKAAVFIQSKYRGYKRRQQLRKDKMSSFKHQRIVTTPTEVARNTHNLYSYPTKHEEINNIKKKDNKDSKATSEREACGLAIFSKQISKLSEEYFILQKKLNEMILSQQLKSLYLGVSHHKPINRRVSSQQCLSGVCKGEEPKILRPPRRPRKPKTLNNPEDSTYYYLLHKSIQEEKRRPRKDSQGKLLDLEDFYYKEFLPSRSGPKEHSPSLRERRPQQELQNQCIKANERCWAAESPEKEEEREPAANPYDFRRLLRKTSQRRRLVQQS", "chain of UniProt P20794 (whole entry, looked up)": "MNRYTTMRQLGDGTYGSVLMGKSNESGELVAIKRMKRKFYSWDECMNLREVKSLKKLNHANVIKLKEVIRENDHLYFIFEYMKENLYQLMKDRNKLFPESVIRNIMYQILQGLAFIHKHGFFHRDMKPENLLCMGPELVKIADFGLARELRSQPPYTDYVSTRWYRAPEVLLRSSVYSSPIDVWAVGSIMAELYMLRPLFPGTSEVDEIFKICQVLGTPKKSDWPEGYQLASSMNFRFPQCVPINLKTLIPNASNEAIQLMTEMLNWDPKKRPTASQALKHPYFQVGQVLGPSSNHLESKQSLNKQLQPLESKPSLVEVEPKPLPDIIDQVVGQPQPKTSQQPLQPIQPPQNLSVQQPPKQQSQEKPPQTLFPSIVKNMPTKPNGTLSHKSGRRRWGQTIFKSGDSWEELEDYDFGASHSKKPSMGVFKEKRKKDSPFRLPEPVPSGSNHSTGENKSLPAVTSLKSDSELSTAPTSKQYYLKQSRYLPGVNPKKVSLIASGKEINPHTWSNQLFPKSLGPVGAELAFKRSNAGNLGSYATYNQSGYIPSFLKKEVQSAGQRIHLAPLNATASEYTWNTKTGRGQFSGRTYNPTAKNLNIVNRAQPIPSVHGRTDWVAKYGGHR", "chain of UniProt Q13177 (whole entry, looked up)": "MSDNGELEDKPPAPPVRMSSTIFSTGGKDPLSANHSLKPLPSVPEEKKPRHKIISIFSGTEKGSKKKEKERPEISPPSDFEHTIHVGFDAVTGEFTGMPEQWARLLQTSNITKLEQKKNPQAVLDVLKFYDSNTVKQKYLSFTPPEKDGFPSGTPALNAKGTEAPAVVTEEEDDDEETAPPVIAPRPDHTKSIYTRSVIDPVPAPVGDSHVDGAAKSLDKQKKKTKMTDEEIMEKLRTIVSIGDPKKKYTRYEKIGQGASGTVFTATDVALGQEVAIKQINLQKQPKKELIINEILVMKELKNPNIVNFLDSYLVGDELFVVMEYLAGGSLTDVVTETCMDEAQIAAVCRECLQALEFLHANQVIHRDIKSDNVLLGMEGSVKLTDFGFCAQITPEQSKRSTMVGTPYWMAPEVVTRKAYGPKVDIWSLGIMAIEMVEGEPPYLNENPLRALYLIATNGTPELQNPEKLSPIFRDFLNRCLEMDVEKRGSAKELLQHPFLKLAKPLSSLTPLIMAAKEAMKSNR"}
{"data": "Sample 1", "SMILES": "N#CC1(c2ccccn2)CCN(Cc2cc(C(=O)O)c(=O)n3ccccc23)CC1", "technique": "competition with immobilised ligand", "concentration": "1 µM"}
{"target": "MTOR (Homo sapiens, UniProt P42345)", "assay": "cell-free assay", "remaining binding": "90%"}
{"target": "BUB1 (Homo sapiens, UniProt O43683)", "assay": "cell-free assay", "remaining binding": "100%"}
{"target": "PIP4K2B (Homo sapiens, UniProt P78356)", "assay": "cell-free assay", "remaining binding": "100%"}
{"target": "PDGFRA (Homo sapiens, UniProt P16234)", "assay": "cell-free assay", "remaining binding": "90%"}
{"target": "MAK (Homo sapiens, UniProt P20794)", "assay": "cell-free assay", "remaining binding": "97%"}
{"target": "MARK2 (Homo sapiens, UniProt Q7KZI7)", "assay": "cell-free assay", "remaining binding": "100%"}
{"target": "EPHA1 (Homo sapiens, UniProt P21709)", "assay": "cell-free assay", "remaining binding": "100%"}
{"target": "FLT3 (Homo sapiens, UniProt P36888, D835Y)", "assay": "cell-free assay", "remaining binding": "95%"}
{"target": "ALK (Homo sapiens, UniProt Q9UM73, L1196M)", "assay": "cell-free assay", "remaining binding": "100%"}
{"target": "SNRK (Homo sapiens, UniProt Q9NRH2)", "assay": "cell-free assay", "remaining binding": "76%"}
{"target": "STK17A (Homo sapiens, UniProt Q9UEE5)", "assay": "cell-free assay", "remaining binding": "100%"}
{"target": "Myosin-IIIa (MYO3A, Homo sapiens, UniProt Q8NEV4)", "assay": "binding", "remaining binding": "100%"}
{"target": "CASK (Homo sapiens, UniProt O14936)", "assay": "cell-free assay", "remaining binding": "100%"}
{"target": "KIT (Homo sapiens, UniProt P10721, L576P)", "assay": "cell-free assay", "remaining binding": "100%"}
{"target": "RET (Homo sapiens, UniProt P07949)", "assay": "cell-free assay", "remaining binding": "95%"}
{"target": "MAPKAPK2 (Homo sapiens, UniProt P49137)", "assay": "cell-free assay", "remaining binding": "75%"}
{"target": "MATK (Homo sapiens, UniProt P42679)", "assay": "cell-free assay", "remaining binding": "84%"}
{"target": "Tyrosine-protein kinase ABL1, phosphorylated (ABL1, Homo sapiens, UniProt P00519, T315I)", "assay": "cell-free assay", "remaining binding": "91%"}
{"target": "DCLK1 (Homo sapiens, UniProt O15075)", "assay": "cell-free assay", "remaining binding": "100%"}
{"target": "MAP2K7 (Homo sapiens, UniProt O14733)", "assay": "cell-free assay", "remaining binding": "95%"}
{"target": "Ribosomal protein S6 kinase alpha-6, N-terminal kinase domain (RPS6KA6, Homo sapiens, UniProt Q9UK32)", "assay": "cell-free assay", "remaining binding": "84%"}
{"target": "FES (Homo sapiens, UniProt P07332)", "assay": "cell-free assay", "remaining binding": "99%"}
{"target": "WNK2 (Homo sapiens, UniProt Q9Y3S1)", "assay": "cell-free assay", "remaining binding": "79%"}
{"target": "PIK3CA (Homo sapiens, UniProt P42336, H1047L)", "assay": "cell-free assay", "remaining binding": "80%"}
{"target": "SRPK2 (Homo sapiens, UniProt P78362)", "assay": "cell-free assay", "remaining binding": "100%"}
{"data": "Sample 2", "Compound": "O=C1NC(=O)c2c1c1c3ccccc3n3c1c1c2c2ccccc2n1[C@H]1CC[C@@H]3O1", "read-out": "enzyme activity", "action": "inhibitor", "concentration": "0.5 µM", "relative to": "control"}
{"target": "RPS6KB1 (Homo sapiens, UniProt P23443)", "remaining activity": "2.38%"}
{"target": "CSK (Homo sapiens, UniProt P41240)", "remaining activity": "79.7%"}
{"target": "PAK2 (Homo sapiens, UniProt Q13177)", "remaining activity": "43.9%"}
{"data": "Sample 3", "organism": "Sarcocystis neurona", "read-out": "parasite growth", "concentration": "concentration not given", "notes": "secondary screen"}
{"Compound": "COc1ccc(CCN)cc1OC", "inhibition": "-10.9%"}
{"Compound": "CCN(CC)CCOC(=O)C(O)(c1ccccc1)c1ccccc1.Cl", "inhibition": "-10.1%"}
{"Compound": "C[N+]1(CCC(C(N)=O)(c2ccccc2)c2ccccc2)CCCCC1.[Br-]", "inhibition": "-11.9%"}
{"Compound": "CC(NC(C)(C)C)C(=O)c1cccc(Cl)c1.Cl (stereo not drawn)", "inhibition": "-31.3%"}
{"data": "Sample 4", "target": "Calcium/calmodulin-dependent protein kinase type II subunit alpha (CAMK2A, Homo sapiens, UniProt Q9UQM7)", "read-out": "enzyme activity", "action": "inhibitor", "concentration": "10 µM", "chain of UniProt Q9UQM7 (whole entry, looked up)": "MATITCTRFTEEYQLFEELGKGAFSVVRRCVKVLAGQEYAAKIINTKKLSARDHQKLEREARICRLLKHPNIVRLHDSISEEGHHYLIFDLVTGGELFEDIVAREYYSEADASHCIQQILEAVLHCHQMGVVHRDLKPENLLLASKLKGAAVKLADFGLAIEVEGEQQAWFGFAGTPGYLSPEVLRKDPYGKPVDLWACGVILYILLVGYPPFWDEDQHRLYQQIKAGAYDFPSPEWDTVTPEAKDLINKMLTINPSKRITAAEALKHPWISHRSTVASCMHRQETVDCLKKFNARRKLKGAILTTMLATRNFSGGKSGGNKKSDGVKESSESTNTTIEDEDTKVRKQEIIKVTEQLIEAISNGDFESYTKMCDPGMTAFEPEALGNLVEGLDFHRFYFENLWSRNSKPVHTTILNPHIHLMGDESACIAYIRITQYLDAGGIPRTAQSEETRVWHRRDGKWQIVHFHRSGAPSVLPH"}
{"Structure (SMILES)": "C[C@H](N)[C@H](O)c1ccc(O)c(O)c1", "inhibition": "-7%"}
{"Structure (SMILES)": "Nc1nc(N)nc(N)n1", "inhibition": "-16%"}
{"Structure (SMILES)": "CCCCOC(=O)c1ccccc1C(=O)O", "inhibition": "7%"}
{"data": "Sample 5", "target": "HLA class I histocompatibility antigen, C alpha chain, allele C*04:01 (Homo sapiens, UniProt P10321)", "read-out": "peptide-MHC binding", "form": "peptide", "concentration": "concentration not given"}
{"Sequence": "FYFNWNTPI", "binding": "inactive"}
{"Sequence": "TVMDIISRK", "binding": "inactive"}
{"Sequence": "RLYELIGSV", "binding": "inactive"}
{"Sequence": "YMKKRYEEF", "binding": "inactive"}
{"Sequence": "YQLEMYHPI", "binding": "inactive"}
{"Sequence": "ELFARSSDPR", "binding": "inactive"}
{"Sequence": "IYPEWYFLW", "binding": "inactive"}
{"Sequence": "YESSHWLVV", "binding": "inactive"}
{"data": "Sample 6", "SMILES": "CC[C@@H](C)c1nc2cc(Nc3ccnc4ccc(S(=O)(=O)C(C)C)cc34)ccc2s1.Cl", "technique": "CCK-8"}
{"cell line": "L929 RIPK3-/- reexpressing RIPK3 K51A", "conditions": "12.5 µM", "survival": "95.2% and 87.6% and 110% and 107%"}
{"cell line": "L929 RIPK3-/- reexpressing RIPK3 K51A/R69H", "conditions": "25 µM, with: zVAD", "survival": "94.2% and 79.4% and 81.6% and 91.8%"}
{"cell line": "L929 RIPK3-/- reexpressing RIPK3 K51A", "conditions": "50 µM", "survival": "61.9% and 57.9% and 51% and 28.3% and 58.4%"}
{"data": "Sample 7", "target": "CCNA1, cyclin fold, Cln2 fusion (human)", "technique": "yeast growth competition, sequencing", "medium": "yeast", "notes": "weak parent motif", "relative to": "not given", "direction": "higher = stronger binding", "starting sequence": "viral docking peptide; KGVKRKLFAEDSS"}
{"Change": "K4Q", "normalised enrichment score": 0.808}
{"Change": "L7H", "normalised enrichment score": -0.0176}
{"Change": "K6D", "normalised enrichment score": -0.186}
{"Change": "K4V", "normalised enrichment score": 0.216}
{"Change": "R5A L7A", "normalised enrichment score": 0.222}
{"Change": "E10H", "normalised enrichment score": 0.044}
{"Change": "F8R", "normalised enrichment score": 0.195}
{"Change": "R5C", "normalised enrichment score": 0.633}
{"data": "Sample 8", "cell line": "mouse MPNST tumor cells", "technique": "high-content immunofluorescence imaging", "refers to": "nuclear SOX9", "concentration": "10 µM", "time": "12 h", "notes": "mean of 2 replicates", "relative to": "DMSO control", "direction": "higher = more nuclear SOX9"}
{"Structure (SMILES)": "CN1CCc2cccc(Cl)c2CC1", "nuclear SOX9 intensity": "100 % of DMSO"}
{"Structure (SMILES)": "CC(=O)[C@H]1CC[C@H]2[C@@H]3CC[C@H]4C[C@H](O)CC[C@]4(C)[C@H]3CC[C@]12C", "nuclear SOX9 intensity": "92.4 % of DMSO"}
{"Structure (SMILES)": "CCCN1CCC[C@@H]2Cc3n[nH]cc3C[C@H]21", "nuclear SOX9 intensity": "104 % of DMSO"}
{"note": "A few entries again (sample 6):"}
{"cell line": "L929 RIPK3-/- reexpressing RIPK3 K51A/R69H", "conditions": "25 µM, with: zVAD", "survival": "94.2% and 79.4% and 81.6% and 91.8%"}
{"cell line": "L929 RIPK3-/- reexpressing RIPK3 K51A", "conditions": "50 µM", "survival": "61.9% and 57.9% and 51% and 28.3% and 58.4%"}
{"cell line": "L929 RIPK3-/- reexpressing RIPK3 K51A", "conditions": "12.5 µM", "survival": "95.2% and 87.6% and 110% and 107%"}
